# Measured values of several laboratories.
# Every numbered part comes from another study and shows a few of its results, in no order. pKi: −log10 of the molar value.
# Chain of UniProt P30530 (whole entry, looked up): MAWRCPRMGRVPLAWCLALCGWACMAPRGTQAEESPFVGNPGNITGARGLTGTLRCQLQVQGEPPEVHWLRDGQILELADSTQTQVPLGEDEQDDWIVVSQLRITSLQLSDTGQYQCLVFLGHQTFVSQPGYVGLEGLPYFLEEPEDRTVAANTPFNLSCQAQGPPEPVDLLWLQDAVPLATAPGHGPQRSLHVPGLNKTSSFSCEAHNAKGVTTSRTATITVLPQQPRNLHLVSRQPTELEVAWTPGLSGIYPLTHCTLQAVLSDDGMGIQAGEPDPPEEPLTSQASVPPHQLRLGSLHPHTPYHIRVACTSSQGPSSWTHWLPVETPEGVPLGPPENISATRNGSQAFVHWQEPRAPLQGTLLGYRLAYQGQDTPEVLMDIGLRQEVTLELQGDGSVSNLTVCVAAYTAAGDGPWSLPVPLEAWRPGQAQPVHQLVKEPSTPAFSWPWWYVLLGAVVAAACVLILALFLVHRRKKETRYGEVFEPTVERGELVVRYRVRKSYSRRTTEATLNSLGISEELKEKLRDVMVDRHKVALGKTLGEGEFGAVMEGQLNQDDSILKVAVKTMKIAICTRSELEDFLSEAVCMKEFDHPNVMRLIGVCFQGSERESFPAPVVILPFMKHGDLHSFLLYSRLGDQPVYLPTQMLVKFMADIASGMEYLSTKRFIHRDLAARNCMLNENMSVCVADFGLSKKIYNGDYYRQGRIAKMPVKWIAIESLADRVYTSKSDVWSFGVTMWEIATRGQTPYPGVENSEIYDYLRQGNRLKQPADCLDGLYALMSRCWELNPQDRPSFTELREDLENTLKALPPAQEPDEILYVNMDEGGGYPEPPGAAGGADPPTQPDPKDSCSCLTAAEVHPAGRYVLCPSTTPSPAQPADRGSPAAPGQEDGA
# Chain of UniProt Q9H3Y6 (whole entry, looked up): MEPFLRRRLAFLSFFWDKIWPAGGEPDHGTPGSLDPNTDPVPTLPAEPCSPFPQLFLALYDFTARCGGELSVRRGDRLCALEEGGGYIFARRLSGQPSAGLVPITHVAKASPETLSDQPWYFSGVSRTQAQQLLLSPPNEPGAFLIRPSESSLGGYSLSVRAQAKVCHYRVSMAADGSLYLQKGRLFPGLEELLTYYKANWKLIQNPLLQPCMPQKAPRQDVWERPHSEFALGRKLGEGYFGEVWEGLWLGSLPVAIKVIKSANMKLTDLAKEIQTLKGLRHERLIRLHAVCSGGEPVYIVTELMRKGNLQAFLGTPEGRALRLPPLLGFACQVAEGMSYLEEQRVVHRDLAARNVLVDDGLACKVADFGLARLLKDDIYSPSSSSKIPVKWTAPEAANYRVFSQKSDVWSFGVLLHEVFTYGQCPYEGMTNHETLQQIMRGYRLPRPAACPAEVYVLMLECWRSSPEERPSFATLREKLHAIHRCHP
# Chain of UniProt P54762 (whole entry, looked up): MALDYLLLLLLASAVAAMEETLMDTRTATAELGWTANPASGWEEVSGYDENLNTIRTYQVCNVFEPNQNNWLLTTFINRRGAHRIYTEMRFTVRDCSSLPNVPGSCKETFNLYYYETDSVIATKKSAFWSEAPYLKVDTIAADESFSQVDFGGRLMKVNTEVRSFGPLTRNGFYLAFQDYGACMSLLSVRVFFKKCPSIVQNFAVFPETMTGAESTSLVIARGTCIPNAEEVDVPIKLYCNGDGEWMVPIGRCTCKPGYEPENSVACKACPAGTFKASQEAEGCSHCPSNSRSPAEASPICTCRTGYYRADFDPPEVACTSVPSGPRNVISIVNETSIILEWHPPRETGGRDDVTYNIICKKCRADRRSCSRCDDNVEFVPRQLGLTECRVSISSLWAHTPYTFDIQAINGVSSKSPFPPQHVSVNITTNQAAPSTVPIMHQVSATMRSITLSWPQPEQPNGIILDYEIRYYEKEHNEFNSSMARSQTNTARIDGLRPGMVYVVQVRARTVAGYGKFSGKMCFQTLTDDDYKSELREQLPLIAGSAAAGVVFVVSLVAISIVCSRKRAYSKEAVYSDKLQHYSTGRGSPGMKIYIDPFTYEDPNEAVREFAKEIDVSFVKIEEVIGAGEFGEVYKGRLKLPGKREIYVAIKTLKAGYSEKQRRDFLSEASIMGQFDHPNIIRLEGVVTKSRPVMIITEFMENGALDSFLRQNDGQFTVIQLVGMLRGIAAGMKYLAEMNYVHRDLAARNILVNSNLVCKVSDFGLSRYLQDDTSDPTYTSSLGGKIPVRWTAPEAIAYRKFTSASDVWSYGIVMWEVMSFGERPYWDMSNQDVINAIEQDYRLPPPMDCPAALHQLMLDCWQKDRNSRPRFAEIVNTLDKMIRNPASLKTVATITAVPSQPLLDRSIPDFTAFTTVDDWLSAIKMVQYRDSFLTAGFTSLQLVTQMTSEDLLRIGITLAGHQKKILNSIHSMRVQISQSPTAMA
# Chain of UniProt O75716 (whole entry, looked up): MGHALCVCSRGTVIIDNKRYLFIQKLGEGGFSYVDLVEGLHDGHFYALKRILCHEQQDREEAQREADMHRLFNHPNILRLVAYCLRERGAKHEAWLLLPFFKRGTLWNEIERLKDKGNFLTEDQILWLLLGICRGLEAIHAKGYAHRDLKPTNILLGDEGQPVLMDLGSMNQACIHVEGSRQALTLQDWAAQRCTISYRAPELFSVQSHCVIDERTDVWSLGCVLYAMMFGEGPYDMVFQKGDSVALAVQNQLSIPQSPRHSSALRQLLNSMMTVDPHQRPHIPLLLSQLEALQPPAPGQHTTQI
# Chain of UniProt Q96PF2 (whole entry, looked up): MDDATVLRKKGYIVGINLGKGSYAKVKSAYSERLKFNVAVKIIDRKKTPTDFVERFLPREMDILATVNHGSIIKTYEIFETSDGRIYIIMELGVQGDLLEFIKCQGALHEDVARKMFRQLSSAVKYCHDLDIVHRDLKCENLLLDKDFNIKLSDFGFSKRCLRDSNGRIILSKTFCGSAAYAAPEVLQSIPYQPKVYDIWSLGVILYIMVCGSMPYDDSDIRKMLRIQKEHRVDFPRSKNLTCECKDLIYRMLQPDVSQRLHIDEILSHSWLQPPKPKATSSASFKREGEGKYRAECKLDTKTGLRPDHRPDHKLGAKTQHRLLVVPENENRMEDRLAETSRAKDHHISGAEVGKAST
# Chain of UniProt Q9BYP7 (whole entry, looked up): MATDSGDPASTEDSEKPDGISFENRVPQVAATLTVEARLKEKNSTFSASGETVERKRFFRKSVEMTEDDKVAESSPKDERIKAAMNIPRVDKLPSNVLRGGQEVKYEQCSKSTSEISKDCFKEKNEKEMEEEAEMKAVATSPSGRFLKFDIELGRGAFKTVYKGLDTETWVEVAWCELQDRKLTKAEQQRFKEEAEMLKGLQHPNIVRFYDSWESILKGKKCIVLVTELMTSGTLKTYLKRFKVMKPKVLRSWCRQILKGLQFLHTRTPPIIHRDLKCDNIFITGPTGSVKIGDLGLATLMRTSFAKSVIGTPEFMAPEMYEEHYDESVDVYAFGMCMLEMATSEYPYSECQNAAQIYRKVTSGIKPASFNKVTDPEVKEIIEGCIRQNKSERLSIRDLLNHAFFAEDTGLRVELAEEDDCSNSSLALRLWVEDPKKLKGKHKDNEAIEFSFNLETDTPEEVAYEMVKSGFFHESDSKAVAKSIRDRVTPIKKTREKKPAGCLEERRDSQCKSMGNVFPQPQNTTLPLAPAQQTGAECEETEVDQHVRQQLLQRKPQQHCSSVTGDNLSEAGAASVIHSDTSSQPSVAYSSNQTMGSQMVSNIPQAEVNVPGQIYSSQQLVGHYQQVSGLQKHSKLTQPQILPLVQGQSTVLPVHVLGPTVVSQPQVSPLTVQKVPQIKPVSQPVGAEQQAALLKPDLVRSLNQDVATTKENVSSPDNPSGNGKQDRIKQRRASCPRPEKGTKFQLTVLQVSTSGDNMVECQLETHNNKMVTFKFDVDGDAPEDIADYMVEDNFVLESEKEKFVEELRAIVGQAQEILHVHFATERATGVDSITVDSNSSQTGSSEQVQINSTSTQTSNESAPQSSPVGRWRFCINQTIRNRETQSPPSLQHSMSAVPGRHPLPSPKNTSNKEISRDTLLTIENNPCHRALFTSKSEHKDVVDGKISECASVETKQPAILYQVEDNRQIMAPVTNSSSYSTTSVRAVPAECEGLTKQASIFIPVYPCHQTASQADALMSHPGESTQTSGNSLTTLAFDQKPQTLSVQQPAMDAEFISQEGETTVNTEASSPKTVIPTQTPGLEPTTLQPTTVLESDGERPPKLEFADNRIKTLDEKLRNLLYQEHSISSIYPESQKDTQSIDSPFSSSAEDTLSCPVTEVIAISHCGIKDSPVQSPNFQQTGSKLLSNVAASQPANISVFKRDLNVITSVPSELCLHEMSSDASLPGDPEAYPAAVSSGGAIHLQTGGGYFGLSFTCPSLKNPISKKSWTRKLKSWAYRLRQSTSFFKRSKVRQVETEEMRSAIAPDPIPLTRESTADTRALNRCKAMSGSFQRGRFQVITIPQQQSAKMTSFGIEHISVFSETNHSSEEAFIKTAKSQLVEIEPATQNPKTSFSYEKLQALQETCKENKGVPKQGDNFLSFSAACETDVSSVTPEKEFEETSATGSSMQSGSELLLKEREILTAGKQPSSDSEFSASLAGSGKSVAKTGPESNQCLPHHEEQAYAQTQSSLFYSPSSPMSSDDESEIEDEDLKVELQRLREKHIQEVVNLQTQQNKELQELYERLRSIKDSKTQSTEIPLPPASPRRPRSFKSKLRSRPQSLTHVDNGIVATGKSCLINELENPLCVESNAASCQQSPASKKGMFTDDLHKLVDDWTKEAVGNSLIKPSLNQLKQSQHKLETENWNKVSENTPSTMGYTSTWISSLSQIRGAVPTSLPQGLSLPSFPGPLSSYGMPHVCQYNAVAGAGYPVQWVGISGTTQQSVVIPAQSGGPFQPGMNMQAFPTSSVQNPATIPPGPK

# Block 1 — action: inhibitor; concentration: 10 µM; baseline: control
# Target: Diamine acetyltransferase 1 (Homo sapiens, UniProt P21673)
# Target sequence (P21673 1-171): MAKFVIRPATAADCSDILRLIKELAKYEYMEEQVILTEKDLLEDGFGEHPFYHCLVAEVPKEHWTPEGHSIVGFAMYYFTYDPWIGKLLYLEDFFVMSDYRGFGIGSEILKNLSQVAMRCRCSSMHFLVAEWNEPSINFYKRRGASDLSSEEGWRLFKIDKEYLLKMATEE
SMILES,remaining activity [%]
CNc1ccccc1C(=O)OC,87.7
O=C1CC(c2ccccc2)Oc2ccccc21 (stereo not drawn),97.1
C[C@H](CC(=O)C[C@@H](C)[C@H]1CC(=O)[C@@]2(C)C3=C(C(=O)C[C@]12C)[C@@]1(C)CC[C@H](O)C(C)(C)[C@@H]1C[C@@H]3O)C(=O)O,123
Cc1ccc(C(C)C)c(O)c1,101
O=C(OC[C@H]1O[C@@H](OC(=O)c2cc(O)c(O)c(O)c2)[C@H](OC(=O)c2cc(O)c(O)c(O)c2)[C@@H](OC(=O)c2cc(O)c(O)c(O)c2)[C@@H]1O)c1cc(O)c(O)c(O)c1,93.9
C=CCSC,74.6
Nc1ncnc2c1ncn2[C@@H]1O[C@H](CO)[C@@H](O)[C@H]1O,95.7
N[C@@H](CS)C(=O)O,101
O=c1ccn([C@@H]2O[C@H](CO)[C@@H](O)[C@H]2O)c(=O)[nH]1,107
O=C(O)[C@H](O)Cc1ccc(O)c(O)c1,88.7
COc1ccc(C(C)=O)c(O)c1,88.5

# Block 2 — observed: enzyme activity; action: inhibitor; concentration: 0.5 µM; baseline: control
# SMILES: CC(C)(C)c1nc2c3cc[nH]c(=O)c3c3cc(F)ccc3c2[nH]1
target,remaining activity
"Cyclin-dependent kinase 1, with cyclin B (CDK1, Homo sapiens, UniProt P06493)",74.9%
"TSSK2 (Homo sapiens, UniProt Q96PF2)",92.5%
"STK16 (Homo sapiens, UniProt O75716)",90.1%
"EPHB1 (Homo sapiens, UniProt P54762)",94.9%
"MAP4K4 (Homo sapiens, UniProt O95819)",38.4%
"SRMS (Homo sapiens, UniProt Q9H3Y6)",98.7%
"AXL (Homo sapiens, UniProt P30530)",81.9%
"BLK (Homo sapiens, UniProt P51451)",93.5%
"WNK3 (Homo sapiens, UniProt Q9BYP7)",90%

# Block 3 — cell line: A-375; concentration: 100 µM; time: 18 h
Structure (SMILES),viability [%]
C[C@@H]1C[C@H]2[C@@H]3CCC4=CC(=O)C=C[C@]4(C)[C@@]3(F)[C@@H](O)C[C@]2(C)[C@@]1(O)C(=O)CO,87.6
CC(/C=C1\SC(=S)N(CC(=O)O)C1=O)=C\c1ccccc1,108
O=C(O)c1cn(-c2ccc(F)cc2)c2cc(N3CCNCC3)c(F)cc2c1=O,94.8
CN(c1nccc(=O)[nH]1)C1CCN(c2nc3ccccc3n2Cc2ccc(F)cc2)CC1,33.4
COc1ccc(CN=c2[nH]c(N3CCC[C@H]3CO)ncc2C(=O)NCc2ncccn2)cc1Cl,64.4
Cc1oncc1C(=O)Nc1ccc(C(F)(F)F)cc1,51
CC(C)(C#N)c1cc(Cn2cncn2)cc(C(C)(C)C#N)c1,90.5
COC(=O)C1=CO[C@@H](O[C@@H]2O[C@H](CO)[C@@H](O)[C@H](O)[C@H]2O)[C@@H]2C(CO)=CC[C@H]12,98.6
Cc1onc(-c2ccccc2Cl)c1C(=O)N[C@@H]1C(=O)N2[C@@H]1SC(C)(C)[C@@H]2C(=O)O,92
COc1cc2nccc(Oc3ccc(NC(=O)NC4CC4)c(Cl)c3)c2cc1C(N)=O,88.8
C[C@H](N)[C@H](O)c1cccc(O)c1,81.9
O=C(O)c1cc(O)c2c(c1)[C@H]([C@H]1c3cc(C(=O)O)cc(O)c3C(=O)c3c(O[C@@H]4O[C@H](CO)[C@@H](O)[C@H](O)[C@H]4O)cccc31)c1cccc(O[C@@H]3O[C@H](CO)[C@@H](O)[C@H](O)[C@H]3O)c1C2=O,83
COc1ccc(Cl)cc1C(=O)NCCc1ccc(S(=O)(=O)NC(=O)NC2CCCCC2)cc1,93
CCOC(=O)O[C@]1(C(=O)OCCl)CC[C@H]2[C@@H]3CCC4=CC(=O)C=C[C@]4(C)[C@H]3[C@@H](O)C[C@@]21C,71.7
NC(=O)NS(=O)(=O)c1ccc(N)cc1,99.6

# Further values, each from its own experiment
SMILES,target,observed,method,measurement,value
O=C([C@H]1C[C@H](O)CN1c1ccc(Cl)cc1)N1CC2COCC(C1)N2Cc1ccc(Cl)cc1,"Alpha-2B adrenergic receptor (ADRA2B, Homo sapiens, UniProt P18089)",binding,radioligand binding,pKi,< 5.00

# Excerpt of the above (block 1):
SMILES,remaining activity [%]
O=c1ccn([C@@H]2O[C@H](CO)[C@@H](O)[C@H]2O)c(=O)[nH]1,107
O=C(O)[C@H](O)Cc1ccc(O)c(O)c1,88.7
COc1ccc(C(C)=O)c(O)c1,88.5
